Results from different studies.
Each numbered part is a random draw from the data of one study; scales do not carry over between parts. Substitutions count along the parent as printed.

Set 1 — technique: RNA Bind-n-Seq; molecule type: RNA; matrix: in vitro; tested at: 365 nM; baseline: no-protein control; direction: higher = stronger binding
Target: RNA binding protein fox-1 homolog 2, RRM domain, GST-SBP tag (RBFOX2, Homo sapiens, UniProt O43251-10, residues 100-194)
Notes: natural RNA segment, single round, ends assumed
All sequences stand within: GGGAGUUCUACAGUCCGACGAUC … UGGAAUUCUCGGGUGCCAA
Construct (chain): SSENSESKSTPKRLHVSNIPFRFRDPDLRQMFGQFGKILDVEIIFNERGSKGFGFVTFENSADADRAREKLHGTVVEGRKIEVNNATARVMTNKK
| Sequence | RBNS enrichment (R) |
| --- | --- |
| GUAGUUCCAGUGGGACCAACCUGUGAUGAAUAUGCCCAAAAGGUACGACAACAAUUCCACGAUGCCAAAUUCAUGGCAGACAUUGAUCUGGAUCCAGGCUGUACAUUGAA | 0.563 |
| UGCACAUCUGUAAAUGACUGUAUGGUUAUGAUUAUAGUACCACGAAAAAUCAUGUUAUUUUUUUUUAAGACACACACAAAAAGAUACUUAAAGACCAAAAACUGUGCUGG | 0.545 |
| CUGUGGAGCACACUUAAGGGAUGGGAUGGUCAGAGGCGCUCCCGAGCAAGCGGGGCAUCAUUCUCCCUUAGAUCCUAGUGUGGCUAAGCAGGGAUGUGGCAGAGAGAUCU | 0.806 |
| CGUUAGCAGAUGGCCAUUCUGGUCAGCUCCCUGCCAGGUCAUAGGGUCACAUACCGUCAACUUCACCUCCUGGCUGCUUAAGACUAGUUCUACUCCCCCCUCAUAACUAU | 0.439 |
| CUUUCAUCCUGGAUUCUUAGGUGGGAAUCAGACACUUAGAAAGAUGUUGGGUCAAGGUUCUAGGAGCAGGACAGAGUGUUCCUGUCAUAGUACACACUAAGUUUCCCACU | 0.353 |
| GCUCUGCCGUGUUCAGACGUCGGCUACUCCGUGGCUCCACCUGACCUCCGAAUGCUAUUUGCUCCCAGGCCAGCACUGCACUGUCUGGAGGGGGCAGAGACCACAGGAGA | 0.568 |

Set 2 — technique: RNA Bind-n-Seq; molecule type: RNA; matrix: in vitro; tested at: 200 nM; notes: whole 134-nt RNA, ends assumed; with: 150 mM KCl; baseline: input library; direction: higher = stronger binding
Target: Fragile X messenger ribonucleoprotein 1, C-terminal low-complexity region (Fmr1, Mus musculus, UniProt P35922)
All sequences stand within: GGGAGUUCUACAGUCCGACGAUC … UGGAAUUCUCGGGUGUCAAGG
| Sequence | log2 enrichment |
| --- | --- |
| GUCCUGUGCUACACAUCGUAUGUACCGAAUCGGAAAAAGGAAAAAAAGGAAAAAAAGGAAAGUAUUAUGUUACGCCGUUCGGAUCUGCAC | -0.741 |
| AGUCCUGUGCUACACAUCGUAUGUACCGAAUCGGGUUUUGGGUUUUGGGGUUUUGGGAAAGUAUUAUGUUACGCCGUUCGGAUCUGCACU | 0.584 |
| CCUCAAGUCCUGUGCUACACAUCGUAUGUACCGAAUCGGGCGGCGGGCGGGGAAAGUAUUAUGUUACGCCGUUCGGAUCUGCACUUCCAG | 0.783 |
| UGGCCCUCGUGGCAUGCGGGGAGGAAGAGGUGGCCUCAUGGAUCGUGGUGGUCCCGGUGGAAUGUUCAGAGGUGGCCGUGGUGGAGACAG | -0.0845 |
| GAGGAGCUGCUGCUGGAGCCCGAGCCGGAGCCCGAGCCCGAAGAGGAGCCGCCCCGGCCCCGCGCCCCCCCGGGAGCUCCGGGCCCUGGG | 0.101 |
| CCUCAAGUCCUGUGCUACACAUCGUAUGUACCGAAUCGGAGGAGGAAAAAGGAAAGUAUUAUGUUACGCCGUUCGGAUCUGCACUUCCAG | 0.186 |
| UUAGAAGAAGAAGAUGGAGUGUGGGAGAAUGGACUUUCCUAUGAAUGCCGUACUCUGCUUUUCAAAGCAGUUCACAAUCUAUUGGAACGG | -1.46 |
| UCAAGUCCUGUGCUACACAUCGUAUGUACCGAAUCGGGAGGGAAAAAGGGUGGGAAAGUAUUAUGUUACGCCGUUCGGAUCUGCACUUCC | 1.06 |

Set 3 — target: CCND1, cyclin fold, Cln2 fusion (human); technique: yeast growth competition, sequencing; matrix: yeast; notes: weak parent motif; baseline: not given; direction: higher = stronger binding
Starting sequence: CDC25A docking peptide (human); PPHRRRLLFACSP; partner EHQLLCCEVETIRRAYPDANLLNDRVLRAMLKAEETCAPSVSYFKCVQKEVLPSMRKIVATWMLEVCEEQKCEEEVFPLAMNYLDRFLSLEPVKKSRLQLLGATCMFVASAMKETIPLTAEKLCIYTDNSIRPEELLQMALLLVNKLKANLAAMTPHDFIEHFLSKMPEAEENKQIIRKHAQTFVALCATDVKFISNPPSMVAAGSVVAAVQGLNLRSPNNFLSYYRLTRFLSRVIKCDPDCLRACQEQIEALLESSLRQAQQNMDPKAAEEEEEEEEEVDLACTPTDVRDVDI
| Variant | normalised enrichment score |
| --- | --- |
| PCHRRRLLFACSP [P2C] | 0.669 |
| PPHRRRLLFAPSP [C11P] | 0.13 |
| PPHRRRLLFATSP [C11T] | -0.499 |
| PPHRRRLLFACQP [S12Q] | -0.386 |
| PPHRRRLDFACSP [L8D] | 0.162 |

Mixed results
| Substance | target | assay | system | setting | how to read | quantity | value |
| --- | --- | --- | --- | --- | --- | --- | --- |
| PhoQ, residues 284 288 289 292 302 303 AQGLTV | PhoP, residues 12 14 15 18 19 NHFIF (Escherichia coli, UniProt P23836) | Sort-seq, measured: YFP reporter | E. coli | PhoQ-PhoP variant library, with: 10 µM Mg2+ | baseline: high Mg2+ state, higher = stronger signaling | fold induction | 10.3 |

A few entries again (set 2):
| Sequence | log2 enrichment |
| --- | --- |
| UUAGAAGAAGAAGAUGGAGUGUGGGAGAAUGGACUUUCCUAUGAAUGCCGUACUCUGCUUUUCAAAGCAGUUCACAAUCUAUUGGAACGG | -1.46 |
